Measured values from different studies.
A part holds a random share of what one study measured.

Block 1
Target: Ras GTPase-activating protein-binding protein 1, full length (G3BP1, Homo sapiens, UniProt Q13283)
UniProt Q13283, sequence (whole entry, looked up): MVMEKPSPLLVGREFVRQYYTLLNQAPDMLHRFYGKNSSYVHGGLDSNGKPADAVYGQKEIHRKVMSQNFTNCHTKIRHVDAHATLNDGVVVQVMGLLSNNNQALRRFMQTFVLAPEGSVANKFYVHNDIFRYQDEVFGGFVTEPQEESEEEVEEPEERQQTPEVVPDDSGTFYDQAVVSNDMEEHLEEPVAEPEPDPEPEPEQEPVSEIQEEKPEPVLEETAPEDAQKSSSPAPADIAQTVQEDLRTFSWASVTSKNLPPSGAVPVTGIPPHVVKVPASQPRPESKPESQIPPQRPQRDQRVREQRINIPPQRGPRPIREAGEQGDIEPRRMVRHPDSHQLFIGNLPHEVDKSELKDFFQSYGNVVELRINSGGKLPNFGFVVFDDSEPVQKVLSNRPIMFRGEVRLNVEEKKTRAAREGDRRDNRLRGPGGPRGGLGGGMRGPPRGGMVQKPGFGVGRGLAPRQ
Technique: RNA Bind-n-Seq
Form: RNA
Matrix: in vitro
Tested at: 200 nM
Setting: whole 134-nt RNA, ends assumed
Added: 150 mM KCl
Baseline: input library
Direction: higher = stronger binding
Measurement: log2 enrichment
Constant ends, left off below: GGGAGUUCUACAGUCCGACGAUC … UGGAAUUCUCGGGUGUCAAGG
CCUGUGCUACACAUCGUAUGUACCGAAUCGGGAAAAAAGGGGAAAAAAGGGAAAAAAGGGAAAGUAUUAUGUUACGCCGUUCGGAUCUGC: -0.643
UGGCCCUGGUGGCAUGCGGGGAGGAAGAGGUGGCCUCAUGGAUCGUGGUGGUCCCCGUGGAAUGUUCAGAGGUGGCCGUGGUGGAGACAG: -0.162
CUGUGCUACACAUCGUAUGUACCGAAUCGGGGUUUUUUUGGGUUUUUUUGGUUUUUUUGGGGAAAGUAUUAUGUUACGCCGUUCGGAUCU: -0.946
UCCUGUGCUACACAUCGUAUGUACCGAAUCGGGUUUUUGGGAAAAAGGGUUUUUUUGGGAAAGUAUUAUGUUACGCCGUUCGGAUCUGCA: -0.375
AAGUCCUGUGCUACACAUCGUAUGUACCGAAUCGGUGGUUUUUUUGGAAAAAAAGGAAAGUAUUAUGUUACGCCGUUCGGAUCUGCACUU: -1.1
CACAGACAACACGCACCCACACAGACACAGAGGGAAGGGGUUGGGAUGGGGACAGGGUGCACAGCAGGGCGGGGUAGGACCCCAGCCACU: 1.81
CCUGUGCUACACAUCGUAUGUACCGAAUCGGGUUUUUUUGGGUUUUUGGGAAAAAAAGGGAAAGUAUUAUGUUACGCCGUUCGGAUCUGC: -1.02
UGGGAGGUGGAUUUUGUUUAUUUUUUUAGCUCAUUUCCAGGGGUGGGAAAUUUUUUUUAAUAUGUGUCAUGAAUAAAGUUGUUUUUGAAA: 0.302
UGUGCUACACAUCGUAUGUACCGAAUCGGGGUUUUUUUGGGUUUUUUUGGGGUUUUUUUGGGGAAAGUAUUAUGUUACGCCGUUCGGAUC: -0.657
GCAGGAAGUAAAAGCAAAUGGAAAUGCUUCGGAUAGUGGCAGGGGUGGGGGUUGCUAAGGAAAGGGUGGGAUGGGAGUGGGUAAAGAGUU: 1.16
UGGGAGGUGGAUUUUGUUUAUUUUUUUAGCUCAUUUCCAGGAGUGGGAAUUUUUUUUUAAUAUGUGUCAUGAAUAAAGUUGUUUUUGAAA: 0.529
CUGUGCUACACAUCGUAUGUACCGAAUCGGGAAAAAAAGGGGAAAAAAAGGGAAAAAAAGGAAAGUAUUAUGUUACGCCGUUCGGAUCUG: -0.804
UGGCCCUGGUGCCAUGCGGGGAGGAAGAGGUGGCCUCAUGGAUCGUGGUGGUCCCGGUGGAAUGUUCAGAGGUGGCCGUGGUGGAGACAG: 0.527

Block 2
Target: RING finger protein unkempt homolog, zinc fingers 1-6, GST-SBP tag (UNK, Homo sapiens, UniProt Q9C0B0, residues 30-357)
UniProt Q9C0B0, sequence (30-357, looked up): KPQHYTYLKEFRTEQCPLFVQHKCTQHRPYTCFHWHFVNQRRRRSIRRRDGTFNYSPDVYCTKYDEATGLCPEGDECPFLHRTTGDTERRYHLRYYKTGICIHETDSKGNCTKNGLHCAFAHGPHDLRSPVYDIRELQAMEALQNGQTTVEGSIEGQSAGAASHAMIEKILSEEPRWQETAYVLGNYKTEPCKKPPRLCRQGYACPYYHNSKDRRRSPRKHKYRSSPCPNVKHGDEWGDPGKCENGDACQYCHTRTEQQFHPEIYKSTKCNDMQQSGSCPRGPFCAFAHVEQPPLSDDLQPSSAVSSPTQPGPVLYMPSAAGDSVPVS
Technique: RNA Bind-n-Seq
Form: RNA
Matrix: in vitro
Tested at: not given
Setting: RNA with constant flanks, human-mouse chimeric sites, ends assumed
Baseline: input RNA pool
Direction: higher = stronger binding
Measurement: bound/input enrichment
Constant ends, left off below: GGGAGUUCUACAGUCCGACGAUC … CAACAGAGGAUUGAGCAUCA
CUGUGUGUGCUGAAUAAAUGGCUUGUAAAGAAGUUUUUCCAAGCUGUAACCCAUGCUGUUAUUAUAGUUGCUGCAAAAUGUUCUUCCUAUUGAUGUUUUUAUUUGUUCUGACUCUCCCUC: 0.766 ratio
UGUGCCCCACAAGAUCCUACCUGAGUGGCAGCUGAAGUUGACUCCCUCUCCUUGCCUGAACCCCCCCCCACUGCCCCCCCAUCCCCCAGUGUCGGCUGAGAUGUUGCCAGCAGACAGUUC: 1.92 ratio
CAGUCCCCGUGUCCCAGUGCAGGACGAUGUGAACAAAAACUCAAAGCGGACCCUCUAUUGUAGUUCUUGAUUCUCGAGUGCCAUUAUUAUUGUUUGUAAAAAAGGAAUUUUUUUUAAAGA: 0.232 ratio
GGAAUUGCUGAUUCAAGUAAGUUUGAGUAUCACAAUGUUAGCUUUCUAAUUCCAUAAAAGUACUUGGUUUUUACAGUUUAUAAUCUGCAAUCCAUCAAGCGCCAUUUGUAAAGAGCAACU: 0.369 ratio
UGUAACUUAUCUGUAAAAGGUUCCCCCCCCUACUGUCAAAAAAAUAUGCAUGUAUAGUAAUUAGGACUUCAUUCCUCCAUGUUUUCUUCCCUUAUCUUACUGUCAUUGUCCUUAAACCUU: 2.09 ratio
UUGAAAACUGAUUCAAGCAAGUUUGAAUAUCACAAUGUUAGCUUUCUAAUUCCAUAAAGAUAGUUUUUUUUUACAGUUUAUAAUCUGACAUCACCCCAGCGCCAUUUGUAAAGAGCAACU: 9.16 ratio

Block 3
Target: Histone acetyltransferase KAT6A, winged helix 1, GST fusion (KAT6A, Homo sapiens, UniProt Q92794, residues 1-85)
Technique: protein binding microarray
Form: double-stranded DNA, one strand shown
Matrix: in vitro
Tested at: not given
Setting: 8-mer, flanks averaged, mean of 2 arrays, mostly near background
Baseline: not given
Direction: higher = stronger binding
Measurement: E-score
Target sequence (chain): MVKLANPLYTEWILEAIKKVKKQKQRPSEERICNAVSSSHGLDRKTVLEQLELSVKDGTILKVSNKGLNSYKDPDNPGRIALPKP
ACGTCTCA: -0.126
GACAAGGA: -0.194
AGTTCAAG: -0.0762
GTAGGGCA: -0.0762
AGCTCCCC: -0.0882
GCCCGTAA: 0.289
CACGTCCC: -0.0752
AATTCGCT: -0.074
CGAACGCG: 0.334
ATGGACCC: -0.0634
AAGACACT: -0.0989
ACTAGTGA: -0.199
GTAAGCAC: -0.103
CGTGCTAG: 0.0879
CACTCCAA: -0.191

Block 4
Target: Interferon regulatory factor 7, full length, phosphomimetic (IRF7, Homo sapiens, UniProt Q92985, residues 1-503, S471D/S472D/S475D/S476D/S477D/S483D/S484D/S487D)
UniProt Q92985, sequence (whole entry, unmodified, looked up): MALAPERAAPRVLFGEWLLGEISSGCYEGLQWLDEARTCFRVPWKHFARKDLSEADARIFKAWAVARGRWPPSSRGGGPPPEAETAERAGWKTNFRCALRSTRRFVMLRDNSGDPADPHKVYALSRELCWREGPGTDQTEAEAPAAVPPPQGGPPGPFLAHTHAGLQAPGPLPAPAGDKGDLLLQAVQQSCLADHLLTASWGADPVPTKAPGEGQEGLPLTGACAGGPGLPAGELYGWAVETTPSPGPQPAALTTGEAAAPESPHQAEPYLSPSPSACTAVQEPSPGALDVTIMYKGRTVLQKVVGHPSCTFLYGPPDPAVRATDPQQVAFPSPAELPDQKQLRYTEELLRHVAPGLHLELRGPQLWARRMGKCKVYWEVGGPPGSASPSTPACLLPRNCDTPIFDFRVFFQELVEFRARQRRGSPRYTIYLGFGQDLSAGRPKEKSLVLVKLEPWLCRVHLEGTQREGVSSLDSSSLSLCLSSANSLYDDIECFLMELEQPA
Technique: protein-binding microarray
Form: double-stranded DNA, one strand shown
Matrix: in vitro
Tested at: 2200 nM top
Setting: 60-bp whole probe
Added: salmon DNA 0.4 mg/ml
Baseline: random background probes
Direction: higher = stronger binding
Measurement: fitted relative affinity
Constant ends, left off below: GCCTAGCAC … GTCTTGATTCGCTTGACGCTGCTG
TTAGATATCGTGTATCGATTAGTGCTA: 0.0748 z-score
TCAGCTTTCCTTCATGCACTGTGCTAG: 1.72 z-score
GACGATTTCGGTATCGAGACGTGCTAG: 3.43 z-score
TCATTTCTTTACTTCACACTGTGCTAG: 2.32 z-score
GTGCCTTTATATACCTGAATGTGCTAG: 1.11 z-score
AAGGCTTTGCTTCCTGCAGAGTGCTAG: -0.0411 z-score

Mixed results
PhoQ, residues 284 288 289 292 302 303 SCCLKL  fold induction (PhoP, residues 12 14 15 18 19 AQCLL (Escherichia coli, UniProt P23836); Sort-seq, measured: YFP reporter; E. coli; PhoQ-PhoP variant library, added: 10 µM Mg2+; baseline: high Mg2+ state, higher = stronger signaling): 0.732
